{"data": "Results pooled from the literature", "organism": "Plasmodium falciparum", "note": "Lines come from different studies, so protocols differ. ± marks the error that the study gave."}
{"Compound": "Cc1cc(Nc2ccc(S(F)(F)(F)(F)F)cc2)n2nc(C(C)(F)F)nc2n1", "read-out": "parasite growth", "strain": "Dd2 DHODH C276F clone CL1", "EC50 [nM]": "360 ± 46"}
{"Compound": "CC[C@H](C)[C@@H](C(=O)O[C@@H](CC(C)C)C(=O)N[C@@H](CC(C)C)C(=O)N[C@@H](C)/C=C/C(=O)N1C(=O)C=C(OC)[C@@H]1C)N(C)C", "read-out": "parasite growth", "method": "flow cytometry", "strain": "D10", "time": "75 h", "setting": "blood stage", "EC50 [nM]": 700}
{"Compound": "Cc1[nH]c2ccccc2c(=O)c1-c1ccc(Oc2ccccc2)cc1", "read-out": "parasite growth", "method": "SYBR Green", "strain": "TM90", "time": "72 h", "setting": "drug-resistant strain, blood stage", "EC50 [nM]": 10}
{"Compound": "CC[C@@](C)(NC(=O)[C@@H]1CCCN1C(=O)C(C)(C)NC(=O)[C@@H](NC(=O)[C@H](C)NC(=O)[C@@H]1CCCN1C(=O)C(C)(C)NC(=O)[C@H](CC(C)C)NC(=O)[C@H](CCC(N)=O)NC(=O)C(C)(C)NC(C)=O)C(C)C)C(=O)N[C@@H](CC(C)C)C(=O)NC(C)(C)C(=O)N1CCC[C@H]1C(=O)N[C@H](CO)CC(C)C", "read-out": "parasite growth", "strain": "DD2", "setting": "drug-resistant strain", "EC50 [nM]": 1320}
{"Compound": "CCC(=O)CCCCC[C@@H]1NC(=O)[C@H]2CCCN2C(=O)[C@H](C(C)CC)NC(=O)[C@H](Cc2cn(OC)c3ccccc23)NC1=O (some centres unmarked)", "read-out": "parasite growth", "method": "SYBR Green I", "strain": "3D7, drug-sensitive", "time": "72 h", "EC50 [nM]": "410 ± 50"}
{"Compound": "COc1ccc2nc(/C=C/c3ccncc3)cc(NCCN(C)C)c2c1", "read-out": "parasite growth", "method": "SYBR Green", "strain": "DD2", "time": "72 h", "setting": "drug-resistant strain, blood stage", "EC50 [nM]": 33.6}
{"Compound": "CC(=O)NC(C)(C)C(=O)N[C@@H](C)C(=O)NC(C)(C)C(=O)N[C@@H](C)C(=O)NC(C)(C)C(=O)N[C@@H](C)C(=O)N[C@@H](CCC(N)=O)C(=O)NC(C)(C)C(=O)N[C@@H](CC(C)C)C(=O)NC(C)(C)C(=O)NCC(=O)N[C@@H](CC(C)C)C(=O)NC(C)(C)C(=O)N1CCC[C@H]1C(=O)N[C@H](C(=O)NC(C)(C)C(=O)NC(C)(C)C(=O)N[C@@H](CCC(N)=O)C(=O)N[C@@H](CCC(N)=O)C(=O)N[C@H](CO)Cc1ccccc1)C(C)C", "read-out": "parasite growth", "strain": "DD2", "setting": "drug-resistant strain", "EC50 [nM]": 320}
{"Compound": "CN1CCN(CCNc2cc(/C=C/c3ccc(F)cc3)nc3ccc(Cl)cc23)CC1", "read-out": "parasite growth", "method": "SYBR Green", "strain": "DD2", "time": "72 h", "setting": "drug-resistant strain, blood stage", "EC50 [nM]": "≤ 15"}
{"Compound": "CC[C@H](C)[C@H](NC(=O)[C@H](C)NC(=O)[C@@H]1CCCN1C(=O)C(C)(C)NC(=O)[C@H](CC(C)C)NC(=O)[C@H](CCC(N)=O)NC(=O)C(C)(C)NC(C)=O)C(=O)NC(C)(C)C(=O)N1CCC[C@H]1C(=O)N[C@](C)(CC)C(=O)N[C@@H](CC(C)C)C(=O)NC(C)(C)C(=O)N1CCC[C@H]1C(=O)N[C@H](CO)CC(C)C", "read-out": "parasite growth", "strain": "DD2", "setting": "drug-resistant strain", "EC50 [nM]": 630}
{"Compound": "CN(C)CCNc1cc(/C=C/c2ccc(C(F)(F)F)cc2)nc2ccc(Cl)cc12", "read-out": "parasite growth", "method": "SYBR Green", "strain": "DD2", "time": "72 h", "setting": "drug-resistant strain, blood stage", "EC50 [nM]": "≤ 15"}
{"Compound": "C[C@@H]1NC(=O)[C@H](CCCCCC(=O)[C@@H]2CO2)NC(=O)[C@H]2CCCN2C(=O)[C@H](Cc2ccccc2)NC1=O", "read-out": "parasite growth", "method": "SYBR Green", "strain": "DD2", "setting": "drug-resistant strain, blood stage", "EC50 [nM]": 10}
{"Compound": "Cc1cc(Nc2cc(F)c(C(F)(F)F)c(F)c2)n2ncnc2n1", "read-out": "parasite growth", "method": "[3H]hypoxanthine uptake", "strain": "3D7", "EC50 [nM]": "~200"}
{"Compound": "O=C(NC1CCCC1)[C@@H]1CCCCOc2cccc(c2)C[C@H](N2CCCC2=O)C(=O)N[C@@H](CCN2CCOCC2)C(=O)N1", "read-out": "asexual blood stage growth", "strain": "W2", "time": "72 h", "EC50 [nM]": 9}
{"Compound": "C[C@H]1[C@@H](CC(=O)NCCCC(=O)N[C@@H](CC(=O)NC(C)(C)C)C(=O)NCCNC(=O)c2cc(-c3ccccc3F)ccc2F)O[C@@H]2O[C@@]3(C)CC[C@H]4[C@H](C)CC[C@@H]1[C@@]24O3", "read-out": "parasite growth", "strain": "Dd2 beta5 A49S, proteasome inhibitor-resistant", "matrix": "erythrocytic stage", "time": "72 h", "EC50 [nM]": "> 2770"}
{"note": "Excerpt of the above:"}
{"Compound": "C[C@@H]1NC(=O)[C@H](CCCCCC(=O)[C@@H]2CO2)NC(=O)[C@H]2CCCN2C(=O)[C@H](Cc2ccccc2)NC1=O", "read-out": "parasite growth", "method": "SYBR Green", "strain": "DD2", "setting": "drug-resistant strain, blood stage", "EC50 [nM]": 10}
{"Compound": "O=C(NC1CCCC1)[C@@H]1CCCCOc2cccc(c2)C[C@H](N2CCCC2=O)C(=O)N[C@@H](CCN2CCOCC2)C(=O)N1", "read-out": "asexual blood stage growth", "strain": "W2", "time": "72 h", "EC50 [nM]": 9}
